Experimental data of several laboratories.
Protocols differ between the studies behind these lines.
Organism: Pseudomonas aeruginosa

| SMILES | test | system | setting | MIC |
| --- | --- | --- | --- | --- |
| CN[C@H](CC(C)C)C(=O)N[C@H]1C(=O)N[C@@H](CC(N)=O)C(=O)N[C@H]2C(=O)N[C@H]3C(=O)N[C@H](C(=O)N[C@H](C(=O)NCc4cn(CC(=O)N[C@H](C(=O)N[C@@H](CCN)C(=O)N[C@H]5CCNC(=O)[C@H]([C@@H](C)O)NC(=O)[C@H](CCN)NC(=O)[C@H](CCN)NC(=O)[C@H](CC(C)C)NC(=O)[C@@H](CC(C)C)NC(=O)[C@H](CCN)NC5=O)[C@@H](C)O)nn4)c4cc(O)cc(O)c4-c4cc3ccc4O)[C@H](O)c3ccc(c(Cl)c3)Oc3cc2cc(c3O[C@@H]2O[C@H](CO)[C@@H](O)[C@H](O)[C@H]2O[C@H]2C[C@](C)(N)[C@H](O)[C@H](C)O2)Oc2ccc(cc2Cl)[C@H]1O | broth microdilution | ATCC 27736, cation-adjusted Mueller-Hinton broth |  | 13 µM |
| CC[C@H](C)[C@H](NC(=O)[C@@H](CCCNC(=N)N)NC(=O)[C@H](CCCNC(=N)N)NC(=O)CNC(=O)[C@H](Cc1c[nH]c2ccccc12)NC(=O)[C@H](CCCNC(=N)N)NC(=O)[C@@H]1CCCN1C(=O)[C@H](CCCNC(=N)N)NC(=O)[C@@H]1CCCN1C(=O)[C@H](CC(C)C)NC(=O)[C@H](Cc1ccc(O)cc1)NC(=O)[C@@H]1CCCN1C(=O)[C@@H]1CCCN1C(=O)[C@H](CCCCN)NC(=O)[C@H](CC(=O)O)NC(=O)[C@@H](N)C(C)C)C(=O)N[C@@H](Cc1ccc(O)cc1)C(=O)N[C@@H](CC(N)=O)C(=O)N[C@H](CCCNC(=N)N)C(N)=O | broth microdilution | DSM 1117 | 18 h, 37 °C, 25% MHB2 | 64 µg/mL |
| CC(=O)N[C@@H](CC(C)C)C(=O)N[C@H]1CSSC[C@@H](C(=O)N2CCC[C@H]2C(N)=O)NC(=O)[C@H]([C@@H](C)O)NC(=O)[C@H](C(C)C)NC(=O)[C@H]([C@@H](C)O)NC(=O)CNC(=O)[C@H](CC(C)C)NC(=O)[C@H](Cc2ccccc2)NC(=O)[C@H](Cc2ccc(O)cc2)NC(=O)[C@H](CC(C)C)NC(=O)[C@H](CCCCN)NC(=O)[C@H](Cc2ccccc2)NC(=O)[C@H](CCCNC(=N)N)NC(=O)[C@H](CCCCN)NC(=O)[C@H](CC(C)C)NC(=O)[C@H](CCCCN)NC(=O)[C@@H]2CCCN2C(=O)[C@H](CCCCN)NC(=O)[C@H](C(C)C)NC(=O)[C@H](CC(N)=O)NC(=O)[C@H](Cc2ccc(O)cc2)NC(=O)[C@H]([C@@H](C)O)NC1=O | broth dilution | CGMCC strain | 24 h | 2.5 to 5 µM |
| CC[C@H](C)[C@H](NC(=O)[C@H](CCCCN)NC(=O)[C@H](CC(N)=O)NC(=O)CNC(=O)[C@@H](NC(=O)[C@H](C)NC(=O)[C@H](CCCNC(=N)N)NC(=O)[C@H](CC(C)C)NC(=O)[C@H](CCCCN)NC(=O)[C@H](CCCCN)NC(=O)[C@H](CCCCN)NC(=O)[C@H](C)NC(=O)[C@H](CCCCN)NC(=O)[C@@H]1CSSC[C@H](NC(=O)[C@H](CCCNC(=N)N)NC(=O)CN)C(=O)N[C@@H](CC(N)=O)C(=O)N[C@@H](CC(C)C)C(=O)N[C@@H](CC(C)C)C(=O)N1)C(C)C)C(=O)N[C@@H](CCCCN)C(=O)N[C@@H](CCC(=O)O)C(=O)N[C@H](C(=O)N[C@@H](CCCCN)C(=O)N[C@@H](CC(N)=O)C(=O)N[C@H](C(=O)N[C@H](C(=O)N[C@@H](Cc1ccccc1)C(=O)N[C@@H](CC(N)=O)C(=O)N[C@@H](CCCNC(=N)N)C(=O)O)C(C)C)C(C)C)[C@@H](C)CC | broth dilution | ATCC 27853 |  | 100 µM |
| C#CCNC(=O)[C@H]1NC(=O)[C@H]2NC(=O)[C@H](NC(=O)[C@@H]3NC(=O)[C@H](CC(N)=O)NC(=O)[C@H](NC(=O)[C@@H](CC(C)C)NC)[C@H](O)c4ccc(c(Cl)c4)Oc4cc3cc(c4O[C@@H]3O[C@H](CO)[C@@H](O)[C@H](O)[C@H]3O[C@H]3C[C@](C)(N)[C@H](O)[C@H](C)O3)Oc3ccc(cc3Cl)[C@H]2O)c2ccc(O)c(c2)-c2c(O)cc(O)cc21 | broth microdilution | ATCC 27736, cation-adjusted Mueller-Hinton broth |  | > 86 µM |
| CC[C@H](C)[C@H](NC(=O)[C@@H](CCCNC(=N)N)NC(=O)[C@H](CCCNC(=N)N)NC(=O)[C@@H]1CCCN1C(=O)[C@@H]1CCCN1C(=O)[C@H](CCCNC(=N)N)NC(=O)[C@@H]1CCCN1C(=O)[C@H](CCCNC(=N)N)NC(=O)[C@@H]1CCCN1C(=O)[C@H](CC(C)C)NC(=O)[C@H](Cc1ccc(O)cc1)NC(=O)[C@H](CCCNC(=N)N)NC(=O)[C@@H]1CCCN1C(=O)[C@H](CCCCN)NC(=O)[C@H](CC(=O)O)NC(=O)[C@@H](N)C(C)C)C(=O)N[C@@H](Cc1ccc(O)cc1)C(=O)N[C@@H](CC(N)=O)C(=O)N[C@H](CCCNC(=N)N)C(N)=O | broth microdilution | DSM 1117 | 18 h, 37 °C, 25% MHB2 | 64 µg/mL |
| CC(C)C[C@@H]1NC(=O)[C@H](CCCCN)NC(=O)CNC(=O)[C@H]2CCCN2C(=O)[C@H](CCCCN)NC(=O)[C@H](CC(C)C)NC(=O)[C@H](CCCCN)NC(=O)C2CCC=CCCCC(NC(=O)[C@H](CCCCN)NC1=O)C(=O)N[C@@H](CCCCN)C(=O)NC(C(N)=O)CCCC=CCCC(N)C(=O)N[C@@H](CCCCN)C(=O)N2 (stereo partly shown) | broth microdilution | ATCC 9027, Mueller-Hinton broth | 18 h, 37 °C | 64 µM |
| CCCCCCCC(=O)N[C@@H](CCN)C(=O)N[C@H](C(=O)N[C@@H](CCN)C(=O)N[C@H]1CCNC(=O)[C@H]([C@@H](C)O)NC(=O)[C@H](CCN)NC(=O)[C@H](CCN)NC(=O)[C@H](Cc2ccccc2)NC(=O)[C@@H](CCC(C)C)NC(=O)[C@H](CCN)NC1=O)[C@@H](C)O | broth microdilution | colistin-resistant isolates |  | 0.25 to 2 µg/mL |
| CC[C@H](C)[C@H](NC(=O)[C@H](CCCCN)NC(=O)[C@H](CCCCN)NC(=O)[C@H](Cc1ccccc1)NC(=O)[C@H](Cc1ccccc1)NC(=O)[C@H](CCCCN)NC(=O)[C@H](CCCCN)NC(=O)[C@H](Cc1ccccc1)NC(=O)[C@H](CCCNC(=N)N)NC(=O)[C@@H](N)CCCCN)C(=O)N[C@@H](CCCCN)C(=O)N[C@@H](CCCCN)C(=O)N[C@@H](CO)C(=O)N[C@H](C(=O)N[C@@H](CCCCN)C(=O)N[C@@H](CCCCN)C(=O)N[C@@H](CCCNC(=N)N)C(=O)N[C@H](C(=O)N[C@@H](CCCCN)C(=O)N[C@@H](CCCCN)C(=O)N[C@@H](CC(C)C)C(=O)N[C@@H](Cc1ccccc1)C(=O)N[C@@H](CCCCN)C(=O)N[C@@H](CCCCN)C(=O)N1CCC[C@H]1C(=O)N[C@@H](CCCNC(=N)N)C(=O)N[C@H](C(=O)N[C@H](C(=O)N1CCC[C@H]1C(=O)N[C@H](C(=O)N[C@@H](CO)C(=O)N[C@H](C(=O)N1CCC[C@H]1C(=O)N[C@@H](Cc1ccccc1)C(=O)O)[C@@H](C)CC)[C@@H](C)CC)[C@@H](C)CC)C(C)C)C(C)C)C(C)C |  | P1 | 20 h, with: 100 mM NaCl | 4 µg/mL |
| CC[C@H](C)[C@H](N)C(=O)N[C@@H](CCCNC(=N)N)C(=O)N[C@H](C(=O)N[C@@H](Cc1c[nH]c2ccccc12)C(=O)N[C@@H](Cc1ccccc1)C(=O)N[C@H](C(=O)N[C@@H](CCCCN)C(=O)N[C@H](C(=O)N[C@@H](CCCNC(=N)N)C(=O)N[C@@H](CCCCN)C(=O)N[C@@H](CCSC)C(=O)N[C@@H](CCCCN)C(=O)N[C@@H](C)C(=O)N[C@H](C(=O)N[C@@H](Cc1ccc(O)cc1)C(=O)N[C@@H](Cc1c[nH]cn1)C(N)=O)[C@@H](C)CC)C(C)C)[C@@H](C)CC)C(C)C | broth dilution | ATCC 27853 |  | 100 µM |
| CC(C)C[C@@H]1NC(=O)[C@@H](CC(C)C)NC(=O)[C@H](CCN)NC(=O)[C@@H](NC(=O)[C@H](CCN)NC(=O)[C@@H](NC(=O)CCCCN=[N+]=[N-])[C@@H](C)O)CCNC(=O)[C@H]([C@@H](C)O)NC(=O)[C@H](CCN)NC(=O)[C@H](CCN)NC1=O | broth microdilution | ATCC 35218, cation-adjusted Mueller-Hinton broth |  | 8 µM |
| CC(=O)N[C@H](Cc1ccccc1F)C(=O)N[C@@H](CCN)C(=O)N[C@H](C(=O)N[C@@H](CCN)C(=O)N[C@H]1CCNC(=O)[C@H]([C@@H](C)O)NC(=O)[C@H](CCN)NC(=O)[C@H](CCN)NC(=O)[C@H](CC(C)C)NC(=O)[C@@H](Cc2ccccc2)NC(=O)[C@H](CCN)NC1=O)[C@@H](C)O | broth microdilution | colistin-resistant isolates |  | > 64 µg/mL |
| C#CCOc1ccc(CN[C@@]2(C)C[C@H](O[C@H]3[C@H](Oc4c5cc6cc4Oc4ccc(cc4Cl)[C@@H](O)[C@@H](NC(=O)[C@@H](CC(C)C)NC)C(=O)N[C@@H](CC(N)=O)C(=O)N[C@H]6C(=O)N[C@H]4C(=O)N[C@H](C(=O)N[C@H](C(=O)O)c6cc(O)cc(O)c6-c6cc4ccc6O)[C@H](O)c4ccc(c(Cl)c4)O5)O[C@H](CO)[C@@H](O)[C@@H]3O)O[C@@H](C)[C@H]2O)cc1OC | broth microdilution | ATCC 10145, cation-adjusted Mueller-Hinton broth | 18 to 20 h, 37 °C, 0.002% polysorbate 80 | > 128 µg/mL |
| CC[C@H](C)[C@H](NC(=O)[C@@H](CCCNC(=N)N)NC(=O)[C@H](CCCNC(=N)N)NC(=O)[C@H](CCC(N)=O)NC(=O)[C@H](Cc1c[nH]c2ccccc12)NC(=O)[C@H](CCCNC(=N)N)NC(=O)[C@@H]1CCCN1C(=O)[C@H](CCCNC(=N)N)NC(=O)[C@@H]1CCCN1C(=O)[C@H](CC(C)C)NC(=O)[C@H](Cc1ccc(O)cc1)NC(=O)[C@@H]1CCCN1C(=O)[C@@H]1CCCN1C(=O)[C@H](CCCCN)NC(=O)[C@H](CC(=O)O)NC(=O)[C@@H](N)C(C)C)C(=O)N[C@@H](Cc1ccc(O)cc1)C(=O)N[C@@H](CC(N)=O)C(=O)N[C@H](CCCNC(=N)N)C(N)=O | broth microdilution | DSM 1117 | 18 h, 37 °C, 25% MHB2 | 128 µg/mL |
| CC(C)[C@H](NC(=O)[C@H](Cc1ccc(O)cc1)NC(=O)[C@H](CS)NC(=O)[C@@H](NC(=O)[C@H](CCCNC(=N)N)NC(=O)[C@H](Cc1ccccc1)NC(=O)[C@H](CS)NC(=O)[C@H](Cc1c[nH]c2ccccc12)NC(=O)[C@@H](N)CCCNC(=N)N)C(C)C)C(=O)NCC(=O)N[C@@H](Cc1ccccc1)C(=O)N[C@@H](CS)C(=O)N[C@@H](Cc1ccc(O)cc1)C(=O)N[C@@H](Cc1c[nH]c2ccccc12)C(=O)N[C@@H](CCCCN)C(=O)N[C@@H](CS)C(=O)N[C@@H](CCCNC(=N)N)C(=O)O | broth microdilution | ATCC 27853, Mueller-Hinton broth | 16 to 20 h, 37 °C | 17.6 µg/mL |
| CC(C)C[C@@H]1NC(=O)[C@@H](CC(C)C)NC(=O)[C@H](CCN)NC(=O)[C@@H](NC(=O)[C@H](CCN)NC(=O)[C@@H](NC(=O)CN=[N+]=[N-])[C@@H](C)O)CCNC(=O)[C@H]([C@@H](C)O)NC(=O)[C@H](CCN)NC(=O)[C@H](CCN)NC1=O | broth microdilution | ATCC 10145, cation-adjusted Mueller-Hinton broth |  | 8 µM |

Some of these lines once more:
| SMILES | test | system | setting | MIC |
| --- | --- | --- | --- | --- |
| CC(C)[C@H](NC(=O)[C@H](Cc1ccc(O)cc1)NC(=O)[C@H](CS)NC(=O)[C@@H](NC(=O)[C@H](CCCNC(=N)N)NC(=O)[C@H](Cc1ccccc1)NC(=O)[C@H](CS)NC(=O)[C@H](Cc1c[nH]c2ccccc12)NC(=O)[C@@H](N)CCCNC(=N)N)C(C)C)C(=O)NCC(=O)N[C@@H](Cc1ccccc1)C(=O)N[C@@H](CS)C(=O)N[C@@H](Cc1ccc(O)cc1)C(=O)N[C@@H](Cc1c[nH]c2ccccc12)C(=O)N[C@@H](CCCCN)C(=O)N[C@@H](CS)C(=O)N[C@@H](CCCNC(=N)N)C(=O)O | broth microdilution | ATCC 27853, Mueller-Hinton broth | 16 to 20 h, 37 °C | 17.6 µg/mL |
| CC(C)C[C@@H]1NC(=O)[C@@H](CC(C)C)NC(=O)[C@H](CCN)NC(=O)[C@@H](NC(=O)[C@H](CCN)NC(=O)[C@@H](NC(=O)CN=[N+]=[N-])[C@@H](C)O)CCNC(=O)[C@H]([C@@H](C)O)NC(=O)[C@H](CCN)NC(=O)[C@H](CCN)NC1=O | broth microdilution | ATCC 10145, cation-adjusted Mueller-Hinton broth |  | 8 µM |
